Experimental data gathered from unrelated publications.
± gives the spread as reported.
DRD3: D(3) dopamine receptor (DRD3, Homo sapiens, UniProt P35462)
Chain of UniProt P35462 (whole entry, looked up): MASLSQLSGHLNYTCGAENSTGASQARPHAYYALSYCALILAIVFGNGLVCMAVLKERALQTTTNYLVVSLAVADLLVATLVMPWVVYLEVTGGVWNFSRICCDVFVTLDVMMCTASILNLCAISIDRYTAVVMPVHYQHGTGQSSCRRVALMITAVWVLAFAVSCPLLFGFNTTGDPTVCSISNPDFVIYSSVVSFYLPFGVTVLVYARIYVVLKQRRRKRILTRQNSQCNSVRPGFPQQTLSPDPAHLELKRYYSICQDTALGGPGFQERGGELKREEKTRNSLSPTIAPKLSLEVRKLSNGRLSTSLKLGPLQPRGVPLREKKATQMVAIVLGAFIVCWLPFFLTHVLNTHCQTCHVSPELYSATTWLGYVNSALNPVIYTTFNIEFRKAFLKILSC
Chain of UniProt P00519 (whole entry, looked up): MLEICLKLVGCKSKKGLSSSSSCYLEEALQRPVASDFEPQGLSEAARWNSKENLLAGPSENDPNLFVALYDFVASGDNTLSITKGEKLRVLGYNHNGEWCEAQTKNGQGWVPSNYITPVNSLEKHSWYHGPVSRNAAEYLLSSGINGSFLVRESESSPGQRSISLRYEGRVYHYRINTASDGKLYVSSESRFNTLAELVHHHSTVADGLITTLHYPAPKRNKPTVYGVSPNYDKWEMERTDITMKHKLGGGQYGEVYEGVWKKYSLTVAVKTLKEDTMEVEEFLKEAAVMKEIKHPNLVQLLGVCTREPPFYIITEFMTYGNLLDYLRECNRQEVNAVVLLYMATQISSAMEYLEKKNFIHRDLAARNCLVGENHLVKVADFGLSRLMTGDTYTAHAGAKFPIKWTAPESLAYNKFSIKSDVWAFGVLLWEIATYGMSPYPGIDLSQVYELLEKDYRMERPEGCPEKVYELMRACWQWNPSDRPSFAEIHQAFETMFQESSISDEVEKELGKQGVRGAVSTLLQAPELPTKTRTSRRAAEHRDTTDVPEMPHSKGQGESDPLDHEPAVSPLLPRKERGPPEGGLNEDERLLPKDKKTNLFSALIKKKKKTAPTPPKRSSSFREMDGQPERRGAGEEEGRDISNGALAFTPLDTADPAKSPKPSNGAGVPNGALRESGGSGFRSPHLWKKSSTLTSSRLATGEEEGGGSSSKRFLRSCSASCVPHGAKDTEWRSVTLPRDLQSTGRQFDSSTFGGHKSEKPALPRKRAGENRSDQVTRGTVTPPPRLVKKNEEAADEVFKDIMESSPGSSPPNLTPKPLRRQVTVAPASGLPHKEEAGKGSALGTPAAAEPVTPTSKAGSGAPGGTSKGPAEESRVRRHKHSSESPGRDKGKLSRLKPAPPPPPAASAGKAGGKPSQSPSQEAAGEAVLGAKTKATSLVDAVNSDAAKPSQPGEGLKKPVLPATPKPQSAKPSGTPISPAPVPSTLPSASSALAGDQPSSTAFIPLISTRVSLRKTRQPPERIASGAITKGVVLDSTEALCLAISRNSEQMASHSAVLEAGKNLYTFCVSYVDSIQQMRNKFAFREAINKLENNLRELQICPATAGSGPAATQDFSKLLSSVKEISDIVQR
Chain of UniProt P06276 (whole entry, looked up): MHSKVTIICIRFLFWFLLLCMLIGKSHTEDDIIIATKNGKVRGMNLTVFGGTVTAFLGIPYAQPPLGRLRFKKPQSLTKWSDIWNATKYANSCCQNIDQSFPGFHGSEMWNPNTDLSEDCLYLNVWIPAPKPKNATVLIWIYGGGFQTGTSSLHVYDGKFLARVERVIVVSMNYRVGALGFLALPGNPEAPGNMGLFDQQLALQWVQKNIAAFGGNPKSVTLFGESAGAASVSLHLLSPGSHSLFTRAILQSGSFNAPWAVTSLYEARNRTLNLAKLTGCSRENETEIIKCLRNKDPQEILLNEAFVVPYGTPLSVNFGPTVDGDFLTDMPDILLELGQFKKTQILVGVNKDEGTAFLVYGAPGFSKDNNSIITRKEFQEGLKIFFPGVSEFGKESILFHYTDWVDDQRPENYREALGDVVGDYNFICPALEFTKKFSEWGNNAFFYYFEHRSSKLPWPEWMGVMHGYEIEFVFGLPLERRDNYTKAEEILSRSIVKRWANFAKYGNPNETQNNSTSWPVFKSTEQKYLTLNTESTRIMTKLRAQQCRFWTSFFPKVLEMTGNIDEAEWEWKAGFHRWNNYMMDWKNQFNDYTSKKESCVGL
Chain of UniProt P17787 (whole entry, looked up): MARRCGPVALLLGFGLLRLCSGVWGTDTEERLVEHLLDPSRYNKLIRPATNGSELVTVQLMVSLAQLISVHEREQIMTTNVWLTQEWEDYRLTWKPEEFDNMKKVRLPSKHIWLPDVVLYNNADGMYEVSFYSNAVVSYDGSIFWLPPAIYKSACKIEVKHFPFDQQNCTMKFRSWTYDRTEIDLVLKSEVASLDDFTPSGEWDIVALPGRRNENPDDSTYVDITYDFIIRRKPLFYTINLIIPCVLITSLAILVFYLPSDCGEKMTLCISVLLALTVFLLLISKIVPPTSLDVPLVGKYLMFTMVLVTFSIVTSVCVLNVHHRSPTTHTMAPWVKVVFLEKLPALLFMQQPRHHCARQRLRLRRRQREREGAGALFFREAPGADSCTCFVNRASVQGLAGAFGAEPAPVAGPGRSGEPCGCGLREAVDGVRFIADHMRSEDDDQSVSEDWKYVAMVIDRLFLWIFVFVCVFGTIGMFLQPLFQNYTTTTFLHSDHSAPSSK
Chain of UniProt P35367 (whole entry, looked up): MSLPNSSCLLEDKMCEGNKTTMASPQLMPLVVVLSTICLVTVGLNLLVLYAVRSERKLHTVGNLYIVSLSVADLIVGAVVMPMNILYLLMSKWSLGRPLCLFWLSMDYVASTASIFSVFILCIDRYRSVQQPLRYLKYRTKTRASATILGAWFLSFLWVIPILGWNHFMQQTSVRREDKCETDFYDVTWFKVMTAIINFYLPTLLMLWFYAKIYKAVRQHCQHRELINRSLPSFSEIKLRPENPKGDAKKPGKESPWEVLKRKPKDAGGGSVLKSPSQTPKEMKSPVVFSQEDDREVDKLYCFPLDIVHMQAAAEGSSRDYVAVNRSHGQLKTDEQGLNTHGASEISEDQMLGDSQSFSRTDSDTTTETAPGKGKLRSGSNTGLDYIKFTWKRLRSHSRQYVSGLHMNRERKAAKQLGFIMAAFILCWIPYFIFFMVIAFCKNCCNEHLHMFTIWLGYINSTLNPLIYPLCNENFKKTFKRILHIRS
Chain of UniProt P63138 (whole entry, looked up): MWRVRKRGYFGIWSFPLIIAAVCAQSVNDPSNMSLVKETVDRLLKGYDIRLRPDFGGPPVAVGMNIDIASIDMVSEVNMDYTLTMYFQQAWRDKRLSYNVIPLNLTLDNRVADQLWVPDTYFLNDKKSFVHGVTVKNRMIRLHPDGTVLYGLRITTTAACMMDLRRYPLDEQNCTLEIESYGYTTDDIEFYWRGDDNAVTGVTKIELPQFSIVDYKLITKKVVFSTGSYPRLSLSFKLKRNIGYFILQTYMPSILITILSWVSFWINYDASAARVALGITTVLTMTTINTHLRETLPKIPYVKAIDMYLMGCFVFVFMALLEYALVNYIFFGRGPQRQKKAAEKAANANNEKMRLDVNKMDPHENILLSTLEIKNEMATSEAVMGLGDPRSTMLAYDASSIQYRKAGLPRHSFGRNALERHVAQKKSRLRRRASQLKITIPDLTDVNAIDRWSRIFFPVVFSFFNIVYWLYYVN
Chain of UniProt Q8TCC7 (whole entry, looked up): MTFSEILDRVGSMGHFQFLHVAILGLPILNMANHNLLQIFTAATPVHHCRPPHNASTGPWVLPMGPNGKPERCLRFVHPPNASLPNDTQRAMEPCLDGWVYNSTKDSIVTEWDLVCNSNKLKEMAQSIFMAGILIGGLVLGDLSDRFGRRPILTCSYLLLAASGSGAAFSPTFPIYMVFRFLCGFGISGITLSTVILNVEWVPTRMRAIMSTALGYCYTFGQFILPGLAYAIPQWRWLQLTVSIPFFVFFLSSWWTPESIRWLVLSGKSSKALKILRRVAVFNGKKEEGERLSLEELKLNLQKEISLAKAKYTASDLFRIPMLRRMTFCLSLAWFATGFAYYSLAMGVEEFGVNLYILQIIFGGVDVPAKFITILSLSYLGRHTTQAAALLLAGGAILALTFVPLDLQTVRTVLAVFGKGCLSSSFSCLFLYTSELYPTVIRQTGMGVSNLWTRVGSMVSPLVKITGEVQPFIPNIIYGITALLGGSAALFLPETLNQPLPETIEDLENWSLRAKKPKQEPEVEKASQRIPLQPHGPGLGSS
Chain of UniProt O43570 (whole entry, looked up): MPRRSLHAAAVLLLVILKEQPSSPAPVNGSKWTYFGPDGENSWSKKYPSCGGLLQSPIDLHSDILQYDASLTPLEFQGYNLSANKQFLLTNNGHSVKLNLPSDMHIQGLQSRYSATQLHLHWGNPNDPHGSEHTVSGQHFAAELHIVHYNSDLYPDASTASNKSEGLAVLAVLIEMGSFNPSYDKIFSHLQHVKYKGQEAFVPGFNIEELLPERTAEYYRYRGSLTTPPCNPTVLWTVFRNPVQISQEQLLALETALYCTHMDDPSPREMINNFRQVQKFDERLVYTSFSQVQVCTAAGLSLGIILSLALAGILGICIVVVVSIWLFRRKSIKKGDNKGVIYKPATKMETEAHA
Chain of UniProt O43704 (whole entry, looked up): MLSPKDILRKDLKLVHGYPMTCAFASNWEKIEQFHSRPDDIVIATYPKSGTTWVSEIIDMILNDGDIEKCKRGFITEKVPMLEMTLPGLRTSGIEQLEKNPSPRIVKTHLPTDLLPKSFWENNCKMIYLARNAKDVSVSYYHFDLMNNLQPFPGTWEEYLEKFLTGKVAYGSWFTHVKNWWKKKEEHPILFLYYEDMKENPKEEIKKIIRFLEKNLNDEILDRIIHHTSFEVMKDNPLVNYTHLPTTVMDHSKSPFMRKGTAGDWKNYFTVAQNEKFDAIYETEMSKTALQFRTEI

Structure (SMILES) | tested on | test | system | setting | how to read | measurement | result
[2H]c1c([2H])c([C@]2([2H])CCCN2C(=O)C(C)(C)Oc2ccc3cn[nH]c3c2)c([2H])c([2H])c1C([2H])([2H])[2H] | Tyrosine-protein kinase ABL1, non-phosphorylated (ABL1, Homo sapiens, UniProt P00519) | KINOMEscan | – | 1 µM | baseline: DMSO control | remaining binding | 54%
Oc1ccc(-c2cc(Cl)ccc2Cl)c(Cl)c1 | Androgen receptor (AR, Homo sapiens, UniProt P10275) | reporter gene, antagonist | – | 5 µM, with: DHT 2 nM | baseline: DHT 2 nM | maximum activity | 41%
O=C(c1ccc(Cl)cc1)N1CCN2C(=O)N(OC(=O)N3CCOc4ccccc43)C(=O)C2C1 (stereo not drawn) | Kallikrein-6 (Homo sapiens, UniProt Q92876) | MS-based ABPP | SW-620 conditioned medium | 10 µM, 1 h, 37 °C | baseline: compound over DMSO, lower = more inhibition | mean protein ratio | 0.95
CC(=O)N[C@@H](C)C(=O)N1CCC[C@H]1C(=O)N[C@@H](CC(C)C)C(=O)N[C@H](C(=O)N[C@@H](CCCNC(=N)N)C(=O)NCC(=O)N[C@@H](CO)C(=O)N[C@@H](CS)C(=O)N[C@@H](CCCNC(=N)N)C(=O)N[C@@H](CCCCN)C(=O)N[C@@H](CCCNC(=N)N)C(=O)N[C@@H](CC(N)=O)C(=O)N[C@@H](CCCNC(=N)N)C(=O)N[C@@H](CO)C(=O)N1CCC[C@H]1C(=O)N[C@@H](CCC(=O)O)C(=O)N[C@@H](CCCNC(=N)N)C(N)=O)[C@@H](C)O | WD repeat-containing protein 5 (WDR5, Homo sapiens, UniProt P61964) | isothermal titration calorimetry | – | concentration not given, pH 7.0, 20 °C | – | binding stoichiometry | 1.23
O=C(Nc1cccnn1)N1CCC(=Cc2cccc(Oc3ccc(C(F)(F)F)cn3)c2)CC1 | Protein S100-A16 (Rattus norvegicus, UniProt A0ACM8QDC9) | competitive ABPP with azido-FP probe | rat brain membrane fraction | 0.01 µM, unit not given | baseline: DMSO | probe labelling | -5.9
CC1(C)S[C@@H]2[C@H](NC(=O)[C@H](N)c3ccccc3)C(=O)N2[C@H]1C(=O)O | Penicillin-binding protein 1A (pbpA, Streptococcus pneumoniae, UniProt Q8DR59) | inhibitor | – | – | – | kinact/KI | 15000 ± 1300 M⁻¹ s⁻¹
COc1cc(N)c(Cl)cc1C(=O)NC1CN2CCC1CC2 (stereo not drawn) | GPR37 (Homo sapiens, UniProt O15354) | β-arrestin recruitment, TANGO luminescence | – | concentration not given | baseline: basal luminescence | log2 fold change | -0.2
C[N+]1(C)CCN(c2ccccc2)CC1 | Neuronal acetylcholine receptor; alpha4/beta2 (Homo sapiens, UniProt P17787+P43681) | peak current, agonist, two-electrode voltage clamp | Xenopus oocytes | 30 µM, human receptor | baseline: ACh 30 µM | response relative to ACh | 70%
CC(CN1c2ccccc2Sc2ccccc21)N(C)C (stereo not drawn) | Plasmodium falciparum | – | GB4 | – | – | IC50 | 6.31 µM
COc1ccc(N2C(=O)N(c3c(C)cccc3Cl)Cc3cnc(Nc4ccc(C5CCN(C)CC5)cc4OC)nc32)nc1 | Serine/threonine-protein kinase pim-3 (PIM3, Homo sapiens, UniProt Q86V86) | kinase activity | – | 0.5 µM | – | inhibition | 1.69%
O=C1C(P(=O)(O)O)CC(O)N1O (stereo not drawn) | Gamma-enolase (ENO2, Homo sapiens, UniProt P09104) | recombinant protein | – | 25 µM, protein 225 nM | – | thermal shift | ~15 °C
Oc1c(Br)cc(Br)cc1Oc1ccc(Br)cc1Br | Sulfotransferase 1B1 (SULT1B1, Homo sapiens, UniProt O43704) | sulfonation, substrate | – | – | – | apparent Vmax | 11 nmol/min/mg protein
Cc1[nH]c(C)c(S(=O)(=O)Nc2ccc(S(F)(F)(F)(F)F)cc2)c1C(=O)N1CCC(F)(F)C1 | DRD3 | allosteric modulator, ternary complex model | – | with: pramipexole, [3H]methylspiperone | – | cooperativity factor α | 26
CCN(C)C(=O)Oc1ccc(/C=C/C(=O)NC2CCN(Cc3ccccc3)CC2)cc1OC | Cholinesterase (BCHE, Equus caballus, UniProt P81908) | Ellman | equine serum BuChE | – | baseline: AChE IC50 over BuChE IC50 | selectivity ratio | 1.3
Nc1nc2c(ncn2[C@H]2C[C@H](O)[C@@H](COP(=O)(O)OP(=O)(O)OP(=O)(O)O)O2)c(=O)[nH]1 | Gag-Pol polyprotein, reverse transcriptase (gag-pol, Human immunodeficiency virus type 1 group M subtype B, UniProt P04585, K653N) | nucleotide misincorporation, steady-state kinetics | – | K66N RT, with: matched template/primer, template T | – | kcat | 0.0253 ± 0.00133 s⁻¹
COc1cc2nccc(Oc3ccc(NC(=O)c4cc5c(n(-c6ccccc6)c4=O)CCCC5=O)nc3)c2cc1OC | Tyrosine-protein kinase ABL1 (ABL1, Homo sapiens, UniProt P00519) | cell viability, CellTiter-Glo | Ba/F3 expressing recombinant kinase | – | baseline: ABL1 IC50 over AXL IC50 | selectivity ratio | > 100
CN(C(=O)n1cnc(-c2ccc[n+]([O-])c2)c1)C1CCCCC1 | DRD3 | radioligand binding | – | 10 µM, with: [3H]spiperone | – | inhibition | 2%
CN1CCN(c2cc(-c3ccncc3)c(-c3ccc4ccccc4c3)nn2)CC1 | Adenosine receptor A2b (ADORA2B, Homo sapiens, UniProt P29275) | agonist, FLIPR | – | 12.5 µM | – | activation | -2.5%
C[C@H]1CN(c2n[nH]c3nc(N[C@H]4CC[C@H](NS(=O)(=O)CCC(F)(F)F)CC4)ncc23)CCO1 | Structural maintenance of chromosomes protein 2 (Homo sapiens, UniProt O95347) | Kinobeads competition, refers to: SMC2 | – | 0.8 µM, unit not given | baseline: vehicle | remaining binding | 1.19
O=C(Nc1cnccc1Cl)N1CCN(Cc2ccc3c(c2)OC(F)(F)O3)CC1 | Histamine H1 receptor (HRH1, Homo sapiens, UniProt P35367) | radioligand binding | – | 50 µM, with: [3H]pyrilamine | – | inhibition of binding | 23%
COc1c(N2CC3CCCN(C(=O)OCc4ccc([N+](=O)[O-])cc4)C3C2)c(F)cc2c(=O)c(C(=O)O)cn(C3CC3)c12 (stereo not drawn) | Oxygen-insensitive NAD(P)H nitroreductase (nfsB, Escherichia coli K-12, UniProt P38489) | substrate | – | with: NADH 100 µM | – | initial rate | 0.045 ± 0.002 µM/min
O=C(O)C(F)(F)C(F)(F)C(F)(F)C(F)(F)C(F)(F)C(F)(F)C(F)(F)F | Organic anion transporter 3 (SLC22A8, Homo sapiens, UniProt Q8TCC7) | substrate | HEK293 stably expressing | 10 µM | – | linear uptake duration | 2.5 min
CC(C)[C@@H]1NC(=O)[C@H](Cc2ccccc2)NC(=O)[C@@H]2NC(=O)[C@H](Cc3ccccc3)NC(=O)[C@@H]3CCCN3C(=O)CNC(=O)[C@H](Cc3ccccc3)NC(=O)[C@@H]3CNCCCC[C@@H](C(=O)O)NC(=O)[C@@H]4NC(=O)[C@H](CC(N)=O)NC(=O)CNC(=O)[C@H]([C@@H](O)C(=O)O)NC(=O)[C@H](CSC[C@@H](NC(=O)[C@H](CCC(N)=O)NC(=O)[C@H](CCCCNC(=O)c5ccc(NN)nc5)NC(=O)[C@@H](N)CS[C@H]4C)C(=O)N[C@@H](CS[C@H]2C)C(=O)N3)NC1=O [technetium-99m labelled] | – | – | rat, saline control, muscle | intravenous, 2 h after tracer, tracer 2 h after reperfusion | – | tissue uptake | 0.02 %ID/g
C#CCNCC(=O)O | putA (Sinorhizobium meliloti, UniProt F7X6I3) | covalent inactivator | – | 23 °C | – | KI | 21.6 ± 0.8 µM
Oc1noc2c1CCNC2 | GABA-A receptor; alpha-1/beta-2/gamma-2 (Rattus norvegicus, UniProt P18508+P62813+P63138) | chloride current, agonist, whole-cell patch clamp | HEK293 expressing GABAA | 30 s | baseline: maximum | maximal response | 122%
Cc1ccc(C(=O)N(CCCN)[C@@H](c2nc3cc(Cl)ccc3c(=O)n2Cc2ccccc2)C(C)C)cc1 | Kinesin-like protein KIF11, motor domain (KIF11, Homo sapiens, UniProt P52732, Y104C) | no effect on inhibition, inhibitor | – | Y104C vs wild type | – | resistance | no effect
Oc1ccc2[nH]cc(CCCCN3CC=C(c4ccccc4)CC3)c2c1 | Cholinesterase (BCHE, Homo sapiens, UniProt P06276) | – | – | concentration not given, Triton | – | efficacy | -94.7 ± 5.05%
OC(CN1CCC(Cc2ccc(F)cc2)CC1)c1ccc(Cl)cc1 (stereo not drawn) | Plasmodium falciparum | – | Dd2 | – | – | IC50 | 1.58 µM
Oc1ccc(Cl)cc1Sc1cc(Cl)ccc1O | Cholinesterase (BCHE, Homo sapiens, UniProt P06276) | – | biochemical | concentration not given | – | activity class | inactive
N#C[Se]Cc1cc(=O)oc2cc(O)ccc12 | Carbonic anhydrase 12 (CA12, Homo sapiens, UniProt O43570) | stopped-flow CO2 hydration | – | – | baseline: Ki CA I over Ki CA XII | selectivity ratio | > 1070

A few entries again:
Structure (SMILES) | tested on | test | system | setting | how to read | measurement | result
O=C(O)C(F)(F)C(F)(F)C(F)(F)C(F)(F)C(F)(F)C(F)(F)C(F)(F)F | Organic anion transporter 3 (SLC22A8, Homo sapiens, UniProt Q8TCC7) | substrate | HEK293 stably expressing | 10 µM | – | linear uptake duration | 2.5 min
COc1cc2nccc(Oc3ccc(NC(=O)c4cc5c(n(-c6ccccc6)c4=O)CCCC5=O)nc3)c2cc1OC | Tyrosine-protein kinase ABL1 (ABL1, Homo sapiens, UniProt P00519) | cell viability, CellTiter-Glo | Ba/F3 expressing recombinant kinase | – | baseline: ABL1 IC50 over AXL IC50 | selectivity ratio | > 100
